# Published values from different studies.
# Every numbered part comes from another study and shows a few of its results, in no order.

# Block 1 — technique: competition protein-binding microarray; form: double-stranded DNA, one strand shown; matrix: in vitro; tested at: 2 µM; together with: Pho4 competitor, 0.05 µM; direction: higher = stronger binding; constant ends, left off below: … GTCTTGATTCGCTTGACGCTGCTG
# Target: Centromere-binding protein 1, full length, His-tagged (CBF1, Saccharomyces cerevisiae, UniProt P17106, residues 1-351)
# UniProt P17106, sequence (whole entry, looked up): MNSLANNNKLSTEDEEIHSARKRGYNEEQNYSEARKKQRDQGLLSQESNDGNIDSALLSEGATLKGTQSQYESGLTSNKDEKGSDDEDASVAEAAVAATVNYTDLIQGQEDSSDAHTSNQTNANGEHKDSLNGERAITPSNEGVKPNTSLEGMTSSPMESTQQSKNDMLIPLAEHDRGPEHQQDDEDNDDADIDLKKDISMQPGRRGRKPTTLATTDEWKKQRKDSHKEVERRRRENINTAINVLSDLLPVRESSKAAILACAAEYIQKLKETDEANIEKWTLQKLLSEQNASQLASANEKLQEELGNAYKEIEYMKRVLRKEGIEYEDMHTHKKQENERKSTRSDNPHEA
# Notes: whole 60-bp probe, lowest competitor level
Sequence,fluorescence intensity [a.u.]
GTCTTGTCTCATTTTCACGTGGCCTTCCCCACTTCA,566
GGGATAGCACTCTGAAACGTGTTGAAGTCTCCTTCC,86.6
CGTCCTAGTGATTTTCACGTGGGATCCATGAGGAAG,637
ACAAACTTTTAAAGCTTCGTGCTTTGGATCAACGAA,83.1
GAGGTACCGATAGATCTCGTGGTGATGGTTACGTTG,123
AAACCACCCTCTTTTCACGTTTCTTCAAGGCCAGTG,90.7
CTAACGAAGGTTTGTATCGTGGGTGACAAGCCAAGT,82.7
TGGAATGTATACCTGCACACGCTTGGTAAGGCCAAC,69.7
GCCAGATAGACCACTGTCGTGCTTTGTTAAGTACAG,65.1
AAGATTCAGCCTTAGCACGCACCAATTCTTGTTCCA,81.6
TGGAACAAGGTGTTCCAGGTGACAAAGTTGGTTTCA,79.6
AAAGCGGTAATTTGTGCGGTGGGTGCAGATATCTAT,79.9
CATACCCAACCTTGTCACTTGACTTAAGATATTTGT,192
CTAACGAAGGTTTTTCACGTGGGGTACAAGCCAAGT,623
GTCTTGTCTCATTGAATAGTGGGTGTCCCCACTTCA,76.7
CATACCCAACCTTGTCGGGTGGGTGAAGATATTTGT,76.8
TCGCATAGACGAACCCGCGTGCGATTGGTAAATTGC,84
GGATGAGTCAAAAAGCATGTGACAGTGAAATAATCA,741
TTGCTCTTCTATTTGCACGTGAAGCATGCTGAAATC,1420

# Block 2 — technique: protein binding microarray; form: double-stranded DNA, one strand shown; matrix: in vitro; tested at: not given; baseline: not given; direction: higher = stronger binding
# Target: Histone acetyltransferase KAT6A, winged helix 2, GST fusion (KAT6A, Homo sapiens, UniProt Q92794, residues 85-181)
# Notes: 8-mer, flanks averaged, mean of 2 arrays, mostly near background
# Construct (chain): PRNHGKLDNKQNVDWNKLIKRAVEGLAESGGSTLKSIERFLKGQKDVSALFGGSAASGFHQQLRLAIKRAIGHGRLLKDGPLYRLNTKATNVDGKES
Sequence,E-score
CTACTGCA,-0.0519
GATAGTGC,-0.155
AAAGACGA,0.016
GATAGCGA,0.00694
CACACGCA,0.0899
AAGAGGCC,-0.0661
ACGGTCGC,0.0689
CCAATTCG,-0.0373
ATGCCACG,-0.0357
AACGTAGT,0.0933
CAAGGTAA,0.00287
ACCTGAAA,0.0226
ATGGTATA,-0.0601
AGGCTTAA,-0.0901
GTATGTAA,-0.163
CAGCATAA,0.0239
GTCACTTA,0.144
CCTAGGAG,0.0274
TAGCCATA,-0.125
ATTTTGAC,-0.0285
CACTCCAA,0.0187
AACGACGT,-0.127
CCTGGACG,-0.15
GGATGAGA,-0.133
AACTCATA,-0.0677

# Block 3 — technique: RNA Bind-n-Seq; form: RNA; matrix: in vitro; tested at: not given; baseline: input RNA pool; direction: higher = stronger binding
# Target: RING finger protein unkempt homolog, zinc fingers 1-6, GST-SBP tag (UNK, Homo sapiens, UniProt Q9C0B0, residues 30-357)
# Notes: RNA with constant flanks, human and mouse sites, ends assumed
# Constant ends, left off below: GGGAGUUCUACAGUCCGACGAUC … CAACAGAGGAUUGAGCAUCA
# Construct (chain): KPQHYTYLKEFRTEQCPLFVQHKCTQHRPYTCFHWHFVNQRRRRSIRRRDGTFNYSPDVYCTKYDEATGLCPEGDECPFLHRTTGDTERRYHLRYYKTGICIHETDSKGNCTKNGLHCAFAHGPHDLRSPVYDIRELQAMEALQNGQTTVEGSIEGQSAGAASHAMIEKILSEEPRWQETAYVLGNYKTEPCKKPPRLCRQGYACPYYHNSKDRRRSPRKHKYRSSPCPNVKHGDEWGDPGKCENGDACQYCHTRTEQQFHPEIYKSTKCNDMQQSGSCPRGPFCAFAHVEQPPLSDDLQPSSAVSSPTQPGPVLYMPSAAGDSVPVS
Sequence,bound/input enrichment [ratio]
UUAGAUUUCAUUGGUAAUAAUGAGUCUCCACGUAAAAAAUUCCCCCCAAUGACAUCUUACCAUAGGAUGCUAUUACACAGAGUAGCCGCUUACUUUGGAUUAGACCACAAUGUUGAUCAG,1.29
AAGGUGCCCUUAUUGCUUCCAAAUGUUUCUGCUUUGGAAUCUCAAAUAGAAAUGGGCAACAUAGUUAAACCCAAAGUACUUACGAAAGAAGCAGAGGAAAAACUUCCUUCUGAUACAGAG,0.354
GGGCCUUGGAAGCUGACGGCGUCCAAGACCCACAUCAUGAAGUCUGCGGAUGUGGAAAAGUUAGCUGACGAGCUGCACAUGCCAUCCCUCCCUGAAAUGAUGUUUGGAGACAACGUUCUA,0.0332
AGUCAACCCUUGAGUCUUCUAGAAGCUGUCCUUCAGGAAUGUCAUAAUACUUUCACUGCCUGCUUUCAUUCUUUCUACCCAACUCCUGCCUUACAGUGGGCUUGCCUUUGUGAUCUGCUG,0.302
GGCGCCUUUGCUUUGCCCAUUCUAAACGCACUGCUGGAGACCCCGCAGCGUUUGUUUGCCCUAGUUCUUACCCCGACUCGGGAGCUGGCCUUUCAGAUCUCAGAGCAGUUUGAAGCCCUG,0.179
UGCUGCAUUUCCAGGGAUGGUGUUUAACACCGCUUCCUCCAGCUCCCUUUUCUAAGAAAGAAUAAAUGGAGUUCUGCUUUUUAUGAAAGGGUCUUUGGUUUUCAGUGUCAACACUGAGAA,0.0513
UUUCAGUGUCUGCUGCACAGAGCUUUACAUCCCCGGGAGCCUCUACCCCCAAUUCAGCAGCAUAUUUGGAAUAUGCUGAAUCCUCCCGCUGAGGUGACAACAAAAAGUCAGAUUCCUCUC,0.199
CAUCUCAGGUCAUCUUCUGUGGAAGAUGUUAAACUAAUUACUAAUGAGGUAAGACCUGCUGUAGAAAUUAGAAGAUGCAGUAUGCCCUCAGUUAUCUGUGAGCCCAUAAAACAUUUCCAA,0.503
CUCCUGUCUCGAUUUACUCGAAAUGAGUUUAAUCUGGAAAGCAAGAGUACCAUUGGAGUAGAGUUUGCAACAAGAAGCAUCCAGGUUGAUGGGAAAACAAUAAAGGCACAGAUAUGGGAC,0.287
CUUCAGUUGUAUGAAGUACAGUUUGAAAUCUUGAAGUGUGAAGAGUUACUAUUGACAGCGCAACUAGAAAGCAUCAAAAGACUUAUAUCAGAAAAAAGAGAUGAAGUGGUAUACUAUGAC,0.426
CCUCACCAAAAGGUUUCGGGAACUGGAGGAAGUAUUAAUGUACAACUCACCACUUCAUGCCAUAGGAGGCUGAAGUUGACGUUGCCUUUUAAGCCUUUUACAUACACUGGUCAGUUCGGA,0.278

# Block 4 — technique: RNA Bind-n-Seq; form: RNA; matrix: in vitro; tested at: 200 nM; notes: whole 134-nt RNA, ends assumed; together with: 150 mM LiCl; baseline: input library; direction: higher = stronger binding; each molecule: 7-deaza-guanosine replaces G
# Target: Fragile X messenger ribonucleoprotein 1, C-terminal low-complexity region (Fmr1, Mus musculus, UniProt P35922)
# Constant ends, left off below: GGGAGUUCUACAGUCCGACGAUC … UGGAAUUCUCGGGUGUCAAGG
Sequence,log2 enrichment
UCAAGUCCUGUGCUACACAUCGUAUGUACCGAAUCGGGAAGGGGAAGGGAAGGGGAAAGUAUUAUGUUACGCCGUUCGGAUCUGCACUUC,-0.535
UCAAGUCCUGUGCUACACAUCGUAUGUACCGAAUCGGGGUUUGGGUUUGGUUUGGAAAGUAUUAUGUUACGCCGUUCGGAUCUGCACUUC,-0.652
GCAGGAAGUAAAAACAAAUGGAAAUGCUUCGAAUAGUGGCAGGGGUGGGGGUUGCUAAGGAAAGGGUGGGAUGGGAGUGGGUAAAGAGUU,1.41
UCAAGUCCUGUGCUACACAUCGUAUGUACCGAAUCGGGUGGGAAAGGGUUUGGGAAAGUAUUAUGUUACGCCGUUCGGAUCUGCACUUCC,-2.37
UGGGAGGUGGAUUUUGUUUAUUUUUUUAGCUCAUUUCCAGGGGUGGGAAUUUUUUUUUAAUAUGUGUCAUGAAUAAAGUUGCUUUUGAAA,-0.311
AGUCCUGUGCUACACAUCGUAUGUACCGAAUCGGGUUUUUGGGUUUUUGGUUUUUGGGAAAGUAUUAUGUUACGCCGUUCGGAUCUGCAC,-1.6
ACCAUGCAGGUGGGCAUCUUUGGGAAGUGGGGCAAGGGGGGGAUAGGGAGGGGGGUAACACUUUGGGAACAGGUGGUCCCGGGUCGUUUC,1.2
UGCUGCGGAAGGGCUCUGGCACUCUGUGUGAGGCCUUGCUGAUGGUGCAGGCCUUCCACGCCAACAUCAUCUUCCCCAACAAGCAAGAGC,-1.49
UGGCCCUGGUGGCAUGGGGGGAGGAAGAGGUGGCCUCAUGGAUCGUGGUGGUCCCGGUGGAAUGUUCAGAGGUGGCCGUGGUGGAGACAG,0.641
UCAAGUCCUGUGCUACACAUCGUAUGUACCGAAUCGGGCCCGGGCCCGGGCCCGGAAAGUAUUAUGUUACGCCGUUCGGAUCUGCACUUC,-0.867
CCUCAAGUCCUGUGCUACACAUCGUAUGUACCGAAUCGGUUGGUUGGGGUUGGAAAGUAUUAUGUUACGCCGUUCGGAUCUGCACUUCCA,-0.599

# A few entries again (block 4):
Sequence,log2 enrichment
AGUCCUGUGCUACACAUCGUAUGUACCGAAUCGGGUUUUUGGGUUUUUGGUUUUUGGGAAAGUAUUAUGUUACGCCGUUCGGAUCUGCAC,-1.6
ACCAUGCAGGUGGGCAUCUUUGGGAAGUGGGGCAAGGGGGGGAUAGGGAGGGGGGUAACACUUUGGGAACAGGUGGUCCCGGGUCGUUUC,1.2
UGCUGCGGAAGGGCUCUGGCACUCUGUGUGAGGCCUUGCUGAUGGUGCAGGCCUUCCACGCCAACAUCAUCUUCCCCAACAAGCAAGAGC,-1.49
UGGCCCUGGUGGCAUGGGGGGAGGAAGAGGUGGCCUCAUGGAUCGUGGUGGUCCCGGUGGAAUGUUCAGAGGUGGCCGUGGUGGAGACAG,0.641
